# Measurements from different studies.
# Numbered parts are unrelated; each lists some results of a single study.
# Chain of UniProt Q8NEV4 (whole entry, looked up): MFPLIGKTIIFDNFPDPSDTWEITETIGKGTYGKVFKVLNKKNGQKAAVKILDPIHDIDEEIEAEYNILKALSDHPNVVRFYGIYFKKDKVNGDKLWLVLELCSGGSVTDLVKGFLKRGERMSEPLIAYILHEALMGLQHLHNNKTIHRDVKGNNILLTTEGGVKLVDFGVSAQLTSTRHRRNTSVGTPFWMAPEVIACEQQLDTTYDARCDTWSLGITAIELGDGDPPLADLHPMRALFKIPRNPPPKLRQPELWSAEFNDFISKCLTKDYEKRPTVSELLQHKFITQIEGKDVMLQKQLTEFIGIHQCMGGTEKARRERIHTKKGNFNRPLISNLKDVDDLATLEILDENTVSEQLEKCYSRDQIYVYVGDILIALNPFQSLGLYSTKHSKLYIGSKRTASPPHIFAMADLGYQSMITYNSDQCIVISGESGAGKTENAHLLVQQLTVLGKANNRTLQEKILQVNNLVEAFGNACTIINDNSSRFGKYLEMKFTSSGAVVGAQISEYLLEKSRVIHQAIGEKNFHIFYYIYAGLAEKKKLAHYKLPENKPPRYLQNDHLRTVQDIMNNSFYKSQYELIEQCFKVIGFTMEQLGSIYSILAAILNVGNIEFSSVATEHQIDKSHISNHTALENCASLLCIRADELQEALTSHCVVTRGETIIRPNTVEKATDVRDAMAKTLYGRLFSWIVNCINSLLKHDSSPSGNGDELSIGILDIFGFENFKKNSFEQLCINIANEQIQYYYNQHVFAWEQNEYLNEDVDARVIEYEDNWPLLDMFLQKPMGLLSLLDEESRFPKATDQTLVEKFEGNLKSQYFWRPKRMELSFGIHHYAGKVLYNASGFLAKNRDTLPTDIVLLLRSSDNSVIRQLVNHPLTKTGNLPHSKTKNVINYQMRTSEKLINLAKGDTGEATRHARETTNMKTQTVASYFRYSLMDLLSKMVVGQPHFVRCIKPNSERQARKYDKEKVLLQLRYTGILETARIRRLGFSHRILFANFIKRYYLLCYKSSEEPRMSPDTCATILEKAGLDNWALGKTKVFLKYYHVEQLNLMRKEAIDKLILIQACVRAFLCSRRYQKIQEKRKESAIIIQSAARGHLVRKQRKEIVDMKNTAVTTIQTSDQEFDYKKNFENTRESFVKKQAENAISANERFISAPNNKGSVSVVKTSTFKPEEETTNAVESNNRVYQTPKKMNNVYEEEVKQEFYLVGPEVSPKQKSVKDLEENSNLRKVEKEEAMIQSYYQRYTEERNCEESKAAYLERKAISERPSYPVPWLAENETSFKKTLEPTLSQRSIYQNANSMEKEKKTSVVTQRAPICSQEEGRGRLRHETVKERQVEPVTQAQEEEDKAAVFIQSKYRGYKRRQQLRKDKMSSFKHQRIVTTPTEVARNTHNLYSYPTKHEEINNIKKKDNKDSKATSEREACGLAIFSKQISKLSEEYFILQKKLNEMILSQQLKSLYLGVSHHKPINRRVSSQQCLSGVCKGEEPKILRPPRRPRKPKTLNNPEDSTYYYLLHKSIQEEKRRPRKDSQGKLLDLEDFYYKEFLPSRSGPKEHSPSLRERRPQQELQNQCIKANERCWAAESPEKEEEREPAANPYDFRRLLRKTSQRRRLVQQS

# Sample 1
# Target: Histone acetyltransferase KAT6A, both winged helices, GST fusion (KAT6A, Homo sapiens, UniProt Q92794, residues 1-181)
# Technique: protein binding microarray
# Form: double-stranded DNA, one strand shown
# Medium: in vitro
# Tested at: not given
# Notes: 8-mer, flanks averaged, mean of 2 arrays, mostly near background
# Baseline: not given
# Direction: higher = stronger binding
# Construct (chain): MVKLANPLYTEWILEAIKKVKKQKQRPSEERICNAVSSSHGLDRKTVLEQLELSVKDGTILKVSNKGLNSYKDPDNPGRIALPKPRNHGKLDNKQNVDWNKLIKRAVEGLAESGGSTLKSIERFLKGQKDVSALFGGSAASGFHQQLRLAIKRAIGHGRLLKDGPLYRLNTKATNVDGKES
Oligonucleotide,E-score
TATGCGAA,0.103
ATGTATTC,0.00941
GGATTGAC,0.00458
AAACGAGT,-0.17
CCCCTCAA,-0.13
GGGCAGTA,-0.0603
GCTAATTA,0.0213
AACCCGGG,0.322

# Sample 2
# Target: Phosphate system positive regulatory protein PHO4, full length, GST-tagged (PHO4, Saccharomyces cerevisiae, UniProt P07270, residues 1-312)
# Technique: competition protein-binding microarray
# Form: double-stranded DNA, one strand shown
# Medium: in vitro
# Tested at: 2 µM
# Notes: whole 60-bp probe, lowest competitor level
# Added: Cbf1 competitor, 0.05 µM
# Direction: higher = stronger binding
# Residues (chain): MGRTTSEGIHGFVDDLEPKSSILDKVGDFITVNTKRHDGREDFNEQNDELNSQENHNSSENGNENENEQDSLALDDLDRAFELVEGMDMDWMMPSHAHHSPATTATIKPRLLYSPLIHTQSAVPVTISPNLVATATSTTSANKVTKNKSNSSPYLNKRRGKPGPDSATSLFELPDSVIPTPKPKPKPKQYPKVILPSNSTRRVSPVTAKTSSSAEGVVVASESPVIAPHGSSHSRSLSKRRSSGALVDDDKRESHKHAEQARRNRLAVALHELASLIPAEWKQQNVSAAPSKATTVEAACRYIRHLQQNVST
Oligonucleotide,fluorescence intensity [a.u.]
GTCTTGTCTCATTTTCACGTGTCTTTCCCCACTTCAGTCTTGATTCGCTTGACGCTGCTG,13600
CAATTACAGAAATGCCCCGTGTAACAAGATGCGCTGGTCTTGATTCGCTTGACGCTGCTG,7420
ATACCAGAGTATAGTGACGTGATGGGGTTGCATTAGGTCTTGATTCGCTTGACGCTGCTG,6320
TATTGGGCTATTTAGCACGTGATGGTAAAGTATATTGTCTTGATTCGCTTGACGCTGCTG,15500
AACGGAGACAGAAAGCACGTTGCCGCTTTGAGAACCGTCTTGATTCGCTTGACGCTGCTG,13500
TGTGGGAATTGTACCCACGATCCCCGCATTACGAGTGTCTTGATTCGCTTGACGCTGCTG,9050
CGGGGTTAAGTTTGCTCTGTGGGTGGCTTGCAGCAGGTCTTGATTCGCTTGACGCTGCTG,4920
CTTTCCCGATCTTGGAATGTGGGTGTAGCACATTTGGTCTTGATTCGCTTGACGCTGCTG,6600

# Further values, each from its own experiment
# T1: itself; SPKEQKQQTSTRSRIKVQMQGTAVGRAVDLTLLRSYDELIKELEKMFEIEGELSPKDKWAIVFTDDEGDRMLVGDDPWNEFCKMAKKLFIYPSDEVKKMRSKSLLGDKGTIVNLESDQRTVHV
# T2: itself; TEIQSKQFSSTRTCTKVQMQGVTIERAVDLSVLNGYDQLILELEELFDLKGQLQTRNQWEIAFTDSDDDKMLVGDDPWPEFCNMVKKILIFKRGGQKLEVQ
# T3: itself; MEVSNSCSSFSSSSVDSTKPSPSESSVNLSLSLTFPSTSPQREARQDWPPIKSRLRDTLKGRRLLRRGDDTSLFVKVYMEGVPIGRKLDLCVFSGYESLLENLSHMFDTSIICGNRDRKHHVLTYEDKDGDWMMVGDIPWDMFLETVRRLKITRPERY
# T4: itself; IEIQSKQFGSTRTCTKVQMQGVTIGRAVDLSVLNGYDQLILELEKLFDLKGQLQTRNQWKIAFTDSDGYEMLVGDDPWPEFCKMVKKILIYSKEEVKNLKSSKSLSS
# B1: ARF11 500-622 (Arabidopsis thaliana, UniProt Q9ZPY6); chain SPKEQKQQTSTRSRIKVQMQGTAVGRAVDLTLLRSYDELIKELEKMFEIEGELSPKDKWAIVFTDDEGDRMLVGDDPWNEFCKMAKKLFIYPSDEVKKMRSKSLLGDKGTIVNLESDQRTVHV
# B2: ARF22 498-598 (Arabidopsis thaliana, UniProt Q9C8N7); chain TEIQSKQFSSTRTCTKVQMQGVTIERAVDLSVLNGYDQLILELEELFDLKGQLQTRNQWEIAFTDSDDDKMLVGDDPWPEFCNMVKKILIFKRGGQKLEVQ
# B3: IAA31 (Arabidopsis thaliana, UniProt Q8H174); chain MEVSNSCSSFSSSSVDSTKPSPSESSVNLSLSLTFPSTSPQREARQDWPPIKSRLRDTLKGRRLLRRGDDTSLFVKVYMEGVPIGRKLDLCVFSGYESLLENLSHMFDTSIICGNRDRKHHVLTYEDKDGDWMMVGDIPWDMFLETVRRLKITRPERY
# B4: ARF20 484-590 (Arabidopsis thaliana, UniProt Q9C7I9); chain IEIQSKQFGSTRTCTKVQMQGVTIGRAVDLSVLNGYDQLILELEKLFDLKGQLQTRNQWKIAFTDSDGYEMLVGDDPWPEFCKMVKKILIYSKEEVKNLKSSKSLSS
Substance,target or system,test,conditions,scale,quantity,value
B1 (ARF11 500-622),"T1, itself",two-hybrid,,"baseline: out of 4 tests, higher = firmer interaction",positive tests,0
C[C@H](c1ccnc(Nc2nc3ccc(-c4cc(N(C)C)ncn4)cc3[nH]2)c1)N1CCN(C(=O)CC(F)(F)F)CC1,"Myosin-IIIa (MYO3A, Homo sapiens, UniProt Q8NEV4)","binding, competition with immobilised ligand",0.1 µM,,remaining binding,100%
B2 (ARF22 498-598),"T2, itself",two-hybrid,,"baseline: out of 4 tests, higher = firmer interaction",positive tests,0
B3 (IAA31),"T3, itself",two-hybrid,,"baseline: out of 4 tests, higher = firmer interaction",positive tests,2
B4 (ARF20 484-590),"T4, itself",two-hybrid,,"baseline: out of 4 tests, higher = firmer interaction",positive tests,0

# Some of these lines once more (sample 2):
Oligonucleotide,fluorescence intensity [a.u.]
AACGGAGACAGAAAGCACGTTGCCGCTTTGAGAACCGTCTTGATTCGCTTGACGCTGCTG,13500
CGGGGTTAAGTTTGCTCTGTGGGTGGCTTGCAGCAGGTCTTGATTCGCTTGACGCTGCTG,4920
